Assay results from different studies.
Every numbered part comes from another study and shows a few of its results, in no order. Substitutions count along the parent as printed.

Sample 1 — technique: RNA Bind-n-Seq; molecule type: RNA; matrix: in vitro; concentration: 365 nM; reference: no-protein control; direction: higher = stronger binding
Target: RNA binding protein fox-1 homolog 2, RRM domain, GST-SBP tag (RBFOX2, Homo sapiens, UniProt O43251-10, residues 100-194)
Notes: natural RNA segment, single round, ends assumed
Constant ends, left off below: GGGAGUUCUACAGUCCGACGAUC … UGGAAUUCUCGGGUGCCAA
Residues (chain): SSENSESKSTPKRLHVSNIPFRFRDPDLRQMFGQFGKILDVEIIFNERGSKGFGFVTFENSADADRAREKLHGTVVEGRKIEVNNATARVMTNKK
Oligonucleotide | RBNS enrichment (R)
AGCUCAAAAUGUAACUGUUUCUAAACUGUAUUCCAAGAGUGCCUUACCAAAGUAUAAAUUUAUUUCUUAAAAUGUGAGUAAUAGGAAUUUUAAAGAUUUAUAUAAUGCUU | 0.484
GAUUUUGAAAGUAUCUGAGAUAUACAAAUCUCCCUGUAGGAAAUGUGAAAGAAAAGCACAACAAAACUAGGGUUUUUUGUUCAUUUGCUUGCUUUUAUGAUUUUUUUUGG | 0.69
ACUAAUCCUCUUUCAGGACCCUAAAGUUGCAGGUUAGUAGGUCUUCAAGGACAAAUCUGUAAGUUUCUUAUUUCUGUAGUGCAAGUAAAAUUUCACUUUUUGAAACUAUA | 0.446
AGAAAGUAUUGAGCCAUGACUUUUUAAAAAUAAUUUAUAUUUAUACUGGUCAAUAAUGAAGGUUUUUUUUUAUUAUUAAAGAACUUGAUUUUAUAAUUCUGCAGCAGAUG | 1.08
GGCCACUUGGCCUCCACUUGGUUUCUUCCCCACAUCUCUCACUUGGGCUGGGAACUGACAGAGGAGCCUGCUGGGCUAGGAGUGGGGGACACUGGCCUCUUAGUGCCCGG | 0.372
GAAAAGCCUUCUUCCUUUGCUUCAGGCAGCUGUCCCCUUCUCUUCCUUGGUGAUCCUGAGUGGGUCACUUAAGGAAAAAGUAUCAGAUUCUCACUCCAUGACCUGAUUUU | 0.357
UGGUAGCAGUUUGAUGUGCUGGGUUCUGUCAUCUGUUCUGAUGAGAAGAUUUUUAUCUUCUGCAGUGCUGAUGGCCGGGAGGAACCAUUCAAAGCCACUGGUUAUUUUGU | 0.72
GUGGCCAGGCAGGAUUAAAGGUAUUCUAAAUCCUUACCACGGGGCAUUUUCUGGAUGCAAAGGCACUAGCCCAUUUGAAAAUUAAUAUUCCGUGCCUCUGGGCCAAGAGG | 0.381
UGUCAAACACAGCCAUUAUAAUUAUGUAAAUUUGCAAAUUAUGUUAAAAACAAGGACAAUAAAUAUUCAAAAUGCAUCCCUAAUUACUACAUUUGACCACGAUCUGUGCU | 0.426
GAGGCAAGGCAAAGUGAUAGUACACGGAAGCAGAACCGGAAACACCCAGGAACUGUUCAGAAAUCUCAGAAGAAAUCUGCUUCUCUUCGAUGGAAAGAUAUAAUUAACGA | 0.369
CCUGCCCAAGAGCUCCCCACACGCCUCACGUGUUGGAGGGACUGAACACGUCCAGCCAAUCACCUGAAAUUGGGGUGUACAGAGAGGGUGCUGCUGUCACCCAGCUAUCU | 0.21
UAUGUAUUUUGGCCAAAAGCCAGCAGCACUUCACAAAAACAAAACACAAACCUAAGCUAACAAAAUGACUGCAUUCGUCUCUUUUUUAAAGGUAGAGAUUAAACUGUAUA | 0.967

Sample 2 — target: CCNE1, cyclin fold, Cln2 fusion (human); technique: yeast growth competition, sequencing; matrix: yeast; notes: weak parent motif; reference: not given; direction: higher = stronger binding
Parent: RB1 docking peptide (human); PKPLKKLRFDIEG
Substitution | normalised enrichment score
PKPLKKLRFDITG [E12T] | 0.831
PKPPKKLRFDIEG [L4P] | 0.373
PDPLKKLRFDIEG [K2D] | -0.217
PKPLGKLRFDIEG [K5G] | 0.4
PKPLKKLRFMIEG [D10M] | 1.49
PKPLKKLRFIIEG [D10I] | -0.831
PKPLKKLRKDIEG [F9K] | 0.673
PKHLKKLRFDIEG [P3H] | -0.535
PKPLKKLRFPIEG [D10P] | 0.54
PKPLKKLRFDIDG [E12D] | -0.153
PKPLKKLRFDIYG [E12Y] | 1.08

Sample 3 — technique: RNA Bind-n-Seq; molecule type: RNA; matrix: in vitro; concentration: not given; reference: input RNA pool; direction: higher = stronger binding
Target: RING finger protein unkempt homolog, zinc fingers 1-6, GST-SBP tag (UNK, Homo sapiens, UniProt Q9C0B0, residues 30-357)
Notes: RNA with constant flanks, human-mouse chimeric sites, ends assumed
Constant ends, left off below: GGGAGUUCUACAGUCCGACGAUC … CAACAGAGGAUUGAGCAUCA
Residues (chain): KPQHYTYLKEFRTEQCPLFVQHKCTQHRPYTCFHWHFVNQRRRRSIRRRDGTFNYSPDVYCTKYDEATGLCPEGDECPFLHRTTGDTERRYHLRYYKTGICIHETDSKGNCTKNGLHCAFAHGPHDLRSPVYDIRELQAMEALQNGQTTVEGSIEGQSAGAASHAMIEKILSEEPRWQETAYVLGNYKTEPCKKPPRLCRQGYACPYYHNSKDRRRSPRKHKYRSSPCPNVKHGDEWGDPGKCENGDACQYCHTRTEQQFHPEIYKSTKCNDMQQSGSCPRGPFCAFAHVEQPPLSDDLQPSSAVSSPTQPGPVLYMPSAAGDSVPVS
Oligonucleotide | bound/input enrichment [ratio]
CUGGCACUCUAUCAGAUAUAUUAAUUUUUUAAUGUAGAUGUAAUUUUAAAAAUGAAUGGCUAGUUUACACGUUUAACUAGGGUUUUACUAUAUAUGUGUACAUAUGUAUAUAUAUAUAUA | 3.69
UUUCUACUGCAGCAGACGAUGCUAAGAAUUAAGGAUCCUAAGAAGUCCCUGGAUUUUUAUACGAGGGUUCUUGGACUGACCCUCCUGCAGAAGCUUGACUUCCCUGCUAUGAAGUUUUCG | 0.287
GUGUCCUGCUUUCAACUUAAAUCACUGAGGCAUCUCUACUAUUCUGUGAGCAUCAGGACUGUAGCGCUGUGUCACCACAUGAGAGUUCAGAAGCAGCCUUUCUGUGGAGAGUGAGAAUGA | 0.0964
UCUGGUCAUACUCGUGCAUAUGGUGUGUGCUUUGUGGACACUUCACUGGGCAAGUUUUUCAUCGGCCAGUUUUCGGAUGACCGCCACUGUUCCAGAUUUAGGACGCUAGUGGCUCACUAU | 0.199
GCGGCAGAAUCAUGGAGGACAUGAUGGAGCUCCCCAAAGCGCGCGUCAACGCCAGCAUGUUACCACAGUAUAUCGACCGGCCCGUGUGCUUCGUAGGGAAGCUGGAAAAGAUUCAUCCCA | 0.26
GAGUCGAUUAUGGAAACAACAAUUCGUUAUCUUGCAGCCUCAGUGUUCACUUGCUUGGCGAUAGCAUUGGGGUUUUAUAGGUUCUGGGGAAGUAGUAGACGAUGAUGCUGCCGCUGCUGC | 0.875
AAAGAGUGGAUAGAGUGUGCACACGGGAUCGGUGGGACCCGGGCGAAAAAGGAGUGCAAGAUAGAAUUCGAUGACUUCGAAGAGUGCUUGCUUCGGCACAAAACGAUGAGGCGAAUGCAU | 0.393
UUUCUACUGCAGCAAACGAUGCUAAGAAUUAAGGAUCCUAAGAAGUCACUGGAUUUUUAUACGAGGGUUCUUGGACUGACCCUCCUGCAGAAGCUUGAUUUUCCCAUUAUGAAGUUCUCG | 0.24
CUUAAUGUUAAUAUUUUUAAAGGAAGCAAGCUAAAAUUUUGCUUUCUGGUACAACACGCAUUAAUAAAAGGUUAAGUUUUGUUUUCCACUGAAGUACUAUUUAACAUCUCAGAAAAAAAC | 0.21

Mixed results
Molecule | target | test | system | conditions | scale | measurement | result
PhoQ, residues 284 288 289 292 302 303 QWGLFV | PhoP, residues 12 14 15 18 19 SEGLL (Escherichia coli, UniProt P23836) | Sort-seq, refers to: YFP reporter | E. coli | PhoQ-PhoP variant library, with: 10 µM Mg2+ | reference: high Mg2+ state, higher = stronger signaling | fold induction | 13.8

A few entries again (sample 2):
Substitution | normalised enrichment score
PKPLKKLRFIIEG [D10I] | -0.831
PKPLKKLRFPIEG [D10P] | 0.54
PKPPKKLRFDIEG [L4P] | 0.373
PKPLKKLRKDIEG [F9K] | 0.673
